Results of several laboratories.
Numbered parts are unrelated; each lists some results of a single study. Changes are numbered by the printed parent chain.

Series 1
Target: Sal-like protein 4, full length isoform B (SALL4, Homo sapiens, UniProt Q9UJQ4-2, residues 1-616)
Method: universal PBM
Molecule type: double-stranded DNA, one strand shown
Matrix: in vitro
Tested at: not given
Setting: 8-mer, flanks averaged, mean of replicates
Reading: higher = stronger binding
| Sequence | E-score |
| --- | --- |
| CGATAGCC | -0.0749 |
| AGCCGCAC | -0.27 |
| CACCGCAA | -0.0761 |
| AGACTCTG | -0.23 |
| CACCCCTA | -0.176 |
| AAATCATG | 0.196 |
| AGGATGCC | -0.245 |
| CTTGCATA | 0.207 |
| CCATGGAA | 0.00622 |
| ACCAGCTC | -0.16 |
| CGCGGCAA | -0.181 |
| AGCGCGAA | -0.142 |
| ACTAAGGG | -0.0963 |
| GATTGAAC | -0.0382 |
| ACGAGACA | -0.0954 |
| GCGAAAGA | -0.0488 |
| CTAACAGC | -0.0841 |
| CCTACGAC | -0.0409 |
| CTCGCCAG | -0.307 |
| ACCGGATG | -0.154 |
| CGGATGAC | -0.244 |
| TAGAGCCA | -0.152 |
| AACAGAGC | -0.158 |
| ATCCTAAT | 0.173 |
| GAATTACA | 0.182 |

Series 2
Target: CEBPB, bZIP domain (human)
Method: DHFR protein complementation
Matrix: yeast
Setting: single substitutions, most at no-binding floor
Relative to: wild-type JUN-FOS pair
Reading: higher = stronger binding
Starting sequence: JUN, bZIP domain (human); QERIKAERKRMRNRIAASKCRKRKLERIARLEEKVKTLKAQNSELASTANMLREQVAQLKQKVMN; partner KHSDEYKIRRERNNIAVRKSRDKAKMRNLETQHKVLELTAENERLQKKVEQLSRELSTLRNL
| Substitution | binding fitness [natural log] |
| --- | --- |
| E54S | -1.24 |
| L52V | -1.38 |
| L52W | -1.46 |
| E33M | -1.47 |
| N42V | -1.49 |
| R53M | -1.13 |
| R30L | -1.24 |
| E44F | -1.42 |
| L31G | -1.49 |
| A49F | -1.54 |
| A40R | -1.27 |
| V35G | -1.45 |
| E33V | -1.38 |
| E54V | -1.41 |
| L31P | -1.5 |
| T48M | -1.29 |

Series 3
Target: CCND1, cyclin fold, Cln2 fusion (human)
Method: yeast growth competition, sequencing
Matrix: yeast
Setting: weak parent motif
Relative to: not given
Reading: higher = stronger binding
Starting sequence: WEE1 docking peptide (human); HKTFRKLRLFDTP; partner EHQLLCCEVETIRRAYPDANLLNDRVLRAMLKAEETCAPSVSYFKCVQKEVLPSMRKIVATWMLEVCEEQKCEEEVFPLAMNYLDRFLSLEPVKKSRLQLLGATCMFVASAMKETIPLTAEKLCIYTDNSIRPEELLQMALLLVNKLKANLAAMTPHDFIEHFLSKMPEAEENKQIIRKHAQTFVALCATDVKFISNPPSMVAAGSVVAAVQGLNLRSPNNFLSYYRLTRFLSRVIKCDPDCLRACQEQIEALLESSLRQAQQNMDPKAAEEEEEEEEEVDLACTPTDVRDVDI
| Substitution | normalised enrichment score |
| --- | --- |
| HHTFRKLRLFDTP [K2H] | 0.189 |
| HKTFRRLRLFDTP [K6R] | -0.0333 |
| HSTFRKLRLFDTP [K2S] | 0.207 |
| HKTFYKLRLFDTP [R5Y] | -0.181 |
| HKTFRKLRLFDTS [P13S] | -0.26 |
| HKTFRKLRLFDTY [P13Y] | 0.0955 |
| HKTFRKLKLFDTP [R8K] | 0.403 |
| HKMFRKLRLFDTP [T3M] | 0.465 |
| HKTFRKLRLFDTW [P13W] | -0.242 |
| HKTFRKLRLFDGP [T12G] | 0.407 |
| HKTFRKWRLFDTP [L7W] | 0.56 |
| HKTFRKLRLNDTP [F10N] | -0.795 |
| HKTFRKLRLFDYP [T12Y] | -0.17 |
| HKTFRKSRLFDTP [L7S] | -0.888 |
| HKTFRKLRSFDTP [L9S] | 0.234 |
| HKTFRALRLFDTP [K6A] | -0.088 |
| HKTFRKLRLFDTR [P13R] | -0.451 |
| HKTKRKLRLFDTP [F4K] | 0.204 |
| HVTFRKLRLFDTP [K2V] | -0.0725 |
| HKSFRKLRLFDTP [T3S] | -1.5 |
| HKTFRKLRLHDTP [F10H] | -0.586 |
| HKRFRKLRLFDTP [T3R] | -0.553 |
| HKTFRKFRLFDTP [L7F] | 0.11 |
| HKTFRKLRLFRTP [D11R] | -0.0112 |
| HKTFRKLRGFDTP [L9G] | 0.307 |

Series 4
Target: ABI1, truncated, D143A, DHFR fusion (Arabidopsis thaliana)
Method: DHFR PCA, deep sequencing
Matrix: yeast
Setting: methotrexate growth selection, single substitutions
Together with: (+)-ABA 0.0091 µM
Relative to: wild-type fitted maximum
Reading: higher = stronger binding
Starting sequence: PYL1, truncated, DHFR fusion (Arabidopsis thaliana); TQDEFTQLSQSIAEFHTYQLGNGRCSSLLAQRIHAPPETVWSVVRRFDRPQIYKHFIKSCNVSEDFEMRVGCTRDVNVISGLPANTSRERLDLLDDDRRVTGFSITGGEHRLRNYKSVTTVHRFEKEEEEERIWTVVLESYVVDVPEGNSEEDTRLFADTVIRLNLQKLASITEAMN; partner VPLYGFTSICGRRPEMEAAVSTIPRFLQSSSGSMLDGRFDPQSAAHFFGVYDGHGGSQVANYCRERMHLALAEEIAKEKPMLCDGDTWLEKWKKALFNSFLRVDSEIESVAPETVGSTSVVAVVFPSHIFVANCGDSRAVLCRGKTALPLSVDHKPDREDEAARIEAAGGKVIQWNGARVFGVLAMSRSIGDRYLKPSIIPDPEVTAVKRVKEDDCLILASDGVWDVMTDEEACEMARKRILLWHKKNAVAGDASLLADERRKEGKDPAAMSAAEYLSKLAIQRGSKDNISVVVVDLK
| Substitution | relative binding score |
| --- | --- |
| T1A | 22.4% |
| R32M | 25.4% |
| R99Y | 78.1% |
| Y141S | -3.03% |
| R88C | 19.6% |
| V143W | -2.42% |
| P83W | 4.98% |
| R74T | -1.81% |
| H110S | 50.4% |
| Y141R | 0.532% |
| D48W | 1.44% |
| L94C | 7.59% |
| A13M | 11.9% |
| E127G | 31.8% |
| A170Q | 13.1% |
| L28H | -1.89% |

Series 5
Target: Hepatocyte nuclear factor 3-alpha (Foxa1, Mus musculus, UniProt P35582, residues 1-468, full length assumed)
Method: EMSA with sequencing
Molecule type: double-stranded DNA, one strand shown
Matrix: in vitro
Tested at: 10 and 20 nM
Setting: whole designed probe, mean of two concentrations, ends assumed
Relative to: negative control set to 0
Reading: higher = stronger binding
Construct (chain): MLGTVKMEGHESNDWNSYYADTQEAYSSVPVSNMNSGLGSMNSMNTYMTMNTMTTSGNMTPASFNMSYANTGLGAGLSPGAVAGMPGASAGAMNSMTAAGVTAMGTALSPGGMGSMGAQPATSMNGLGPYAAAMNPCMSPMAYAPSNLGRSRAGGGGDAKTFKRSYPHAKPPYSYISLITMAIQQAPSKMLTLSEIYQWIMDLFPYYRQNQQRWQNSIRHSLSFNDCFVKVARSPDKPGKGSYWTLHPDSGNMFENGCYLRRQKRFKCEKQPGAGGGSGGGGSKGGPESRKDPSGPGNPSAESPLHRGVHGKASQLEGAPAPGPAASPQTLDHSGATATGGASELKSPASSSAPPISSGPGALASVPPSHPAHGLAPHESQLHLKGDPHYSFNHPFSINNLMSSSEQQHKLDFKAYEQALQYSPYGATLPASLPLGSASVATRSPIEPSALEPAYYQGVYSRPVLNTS
| Sequence | normalised bound fraction |
| --- | --- |
| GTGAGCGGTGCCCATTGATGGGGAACCAAAAATTGTTAAATCATTAAAAAATTGTTTGAAAATATACACTTCTTGTTGTAGACCCCCACTGTACACACGACTATAAACATTGTTCCCTATGTAATCTAAAAAAGGAAACATATAATAAGAGATTTGAAAAGTCTGGACATTTCCTTCCCAACAGATATTAAAGGCAACGTCTTTAATCTAAGACATTATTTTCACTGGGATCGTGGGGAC | 0.0601 ratio |
| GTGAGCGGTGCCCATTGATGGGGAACATCTTCCCCCTCTTCCTTGCCCCACCAGCTCACCTTCCCGGGTGGAATCTTTATAGGAAAATAAATAAAGCCGGCATTCGTTAACCCTCTTCTGGCGCAAACTGCTGTTTGCTCTGGATGAATCATGGTCCTTTGGCGACGCCAGGCTCCGGGAGAGCAAAGCACCGTGTCAGGGCCATGATCCGGGGTGGCCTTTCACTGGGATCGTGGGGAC | 0.312 ratio |
| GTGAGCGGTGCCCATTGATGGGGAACAGGTGAAGTCGGCACCCTTGTCTTTGAGCTCACACAGGTGGCTGAGCTAAATAAGTGCTGAAAGGAGCTGGGTGCACTCTCCTGAGTCACCTTAGATGACTCTGGAAGCACTGTAAACTTGGCATCAGAAGGAGATTATAAAGTGCTTTTGTTCCTAAGCTTTATAAAGTGTGTGTGTATGCATGTGGGTTTCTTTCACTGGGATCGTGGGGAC | -0.0392 ratio |
| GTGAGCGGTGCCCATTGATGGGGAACGTGGAGTTAATGCAGATTGACGCTGAAGTTCATGTGGGGGCACAGACGTCTGATGGTGCCCAAGAAACCCAGGAGACAAAACTGATGCTTCCCTGTGGACACTGCAGCATCCTCTAAAGCCGCTGTAATTAAGGTATGTGACACATGACCAGGAAGCAGACAGATGGACAAAAATGGAATATCTGGAAATAGATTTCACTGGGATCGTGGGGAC | -0.00234 ratio |
| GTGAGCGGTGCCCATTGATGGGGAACTCCACAGTAGAAACGAAGGAGATGACAGATACCCCGGCACCAAAACTGACACCAGGTTTTTGTTGCTTCTTCCACTATATAATGGAGAAGTTCAGATTACTCTAGTTGTGCAACTACTGTTAACATTGGCTTAAGGAAACCCAAGAAACTGAATCACATCAAAGGTATGTCAGAGGTATGTGAACCAGAGCAATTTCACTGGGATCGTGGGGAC | 0.228 ratio |

For quick reference, copied from above (series 1):
| Sequence | E-score |
| --- | --- |
| CGATAGCC | -0.0749 |
| AGCCGCAC | -0.27 |
| CACCGCAA | -0.0761 |
| AGACTCTG | -0.23 |
| CACCCCTA | -0.176 |
| AAATCATG | 0.196 |
| AGGATGCC | -0.245 |
| CTTGCATA | 0.207 |
| CCATGGAA | 0.00622 |
| ACCAGCTC | -0.16 |
| CGCGGCAA | -0.181 |
| AGCGCGAA | -0.142 |
